Assay results gathered from unrelated publications.
Compare with care: the assays were run in different laboratories. ± marks the error that the study gave.
Organism: Plasmodium falciparum

SMILES | assay | system | setting | IC50
CCC1=C(CC)/C(=C/c2cc(Cc3ccc(OC(F)(F)F)cc3)c(C)[nH]2)N=C1c1ccc[nH]1 | parasite growth, SYBR Green fluorescence | Dd2 (multidrug-resistant), asexual blood stage | 72 h | 269 nM
COc1cc(C)c(-c2ccc(O)c3c2C[C@@H](C)N[C@@H]3C)c2cccc(O)c12 (single isomer, unassigned) | asexual parasite proliferation, SYBR Green I fluorescence | clinical isolate SB_05, Mozambique | – | 17.3 ± 1 nM
O=C(CC1NCCCC1O)Cn1cnc2cc(Br)c(Cl)cc2c1=O (stereo not drawn) | parasite growth | conditional knockdown control line | 120 h, with: 50 nM anhydrotetracycline | 0.5 nM
COc1nc2ccc(Br)cc2cc1[C@@H](c1ccccc1)[C@@](O)(CCN(C)C)c1cccc2ccccc12 | parasite growth, stage-specific treatment | – | 12 h, early to late trophozoite stage | 3220 ± 530 nM
CC1=C(C)/C(=C/c2[nH]c(Cc3ccc(OC(F)(F)F)cc3)cc2Cc2ccc(OC(F)(F)F)cc2)N=C1c1ccc[nH]1 | parasite growth, SYBR Green fluorescence | Dd2 (multidrug-resistant), asexual blood stage | 72 h | 1480 nM
Cc1ccc2oc(-c3cc(NC(=O)Cc4ccccc4)ccc3Cl)nc2c1 | parasite growth, inhibitor, SYBR Green I | 3D7 | – | 32200 nM
Cc1[nH]c(/C=C2\N=C(c3ccc[nH]3)C3=C2OCCO3)cc1Cc1ccc(Cl)cc1 | parasite growth, SYBR Green fluorescence | Dd2 (multidrug-resistant), asexual blood stage | 72 h | 9.78 nM
NC(N)=Nc1ccc(-c2ccc(-c3ccc(N=C(N)N)c(Cl)c3)o2)cc1Cl | parasite growth, stage-specific treatment | – | 12 h, early to late trophozoite stage | 700 ± 30 nM
COc1cc(CO)c(-c2ccc3c(c2O)[C@@H](C)N[C@H](C)C3)c2cccc(O)c12 | asexual parasite proliferation, SYBR Green I fluorescence | 7G8 | – | 20.2 ± 8.9 nM

A few entries again:
SMILES | assay | system | setting | IC50
Cc1[nH]c(/C=C2\N=C(c3ccc[nH]3)C3=C2OCCO3)cc1Cc1ccc(Cl)cc1 | parasite growth, SYBR Green fluorescence | Dd2 (multidrug-resistant), asexual blood stage | 72 h | 9.78 nM
